Measured values collected from several papers.
Each numbered part is a random draw from the data of one study; scales do not carry over between parts. Positions count from the first letter of the parent shown.

Series 1 — technique: protein-binding microarray; molecule type: double-stranded DNA, one strand shown; sample: in vitro; tested at: not given; direction: higher = stronger binding
Target: Max dimerization protein 1, bHLH-zipper, MAX partner unstated (MXD1, Homo sapiens, UniProt Q05195, residues 56-136)
Notes: k-mer, scored over probes, only values ≥0.25
Residues (chain): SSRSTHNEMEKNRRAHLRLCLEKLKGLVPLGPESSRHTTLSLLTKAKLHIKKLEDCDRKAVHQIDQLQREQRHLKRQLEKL
Oligonucleotide	E-score
GCATGGCA	0.398
ACACATGA	0.368
AATGCGTG	0.307
AATCCACG	0.28
CACTCCCC	0.347
ACGTTGTC	0.327
ACGCGTGC	0.406
CCTCGAGG	0.318
TCGTGGAA	0.3
CGCGTGAC	0.384
GAGCACAC	0.305
CCACGTGG	0.497
AGGGAGGG	0.275

Series 2 — target: CCNA2, cyclin fold, Cln2 fusion (human); technique: yeast growth competition, sequencing; sample: yeast; notes: strong parent motif; baseline: not given; direction: higher = stronger binding
Starting sequence: RBL2 docking peptide (human); STTRRRLFVENDS; partner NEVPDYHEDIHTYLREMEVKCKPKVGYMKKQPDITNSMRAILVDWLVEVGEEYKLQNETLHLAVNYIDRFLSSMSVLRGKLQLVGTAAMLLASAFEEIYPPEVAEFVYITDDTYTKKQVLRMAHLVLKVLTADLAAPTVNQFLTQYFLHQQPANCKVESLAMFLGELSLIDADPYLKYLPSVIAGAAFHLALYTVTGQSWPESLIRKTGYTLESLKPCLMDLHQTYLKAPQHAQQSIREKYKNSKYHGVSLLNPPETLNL
Variant	normalised enrichment score
SMTRRRLFVENDS [T2M]	5.4
STTTRRLFVENDS [R4T]	0.457
STTRRRLQVENDS [F8Q]	1.16
STTRRRLFVMNDS [E10M]	4.77
STTRRRLGVENDS [F8G]	-0.18
STIRRRLFVENDS [T3I]	5.51
STTRRRLFVENIS [D12I]	5.59
STTRRRLFPENDS [V9P]	5.87
STWRRRLFVENDS [T3W]	5.04
STTRRRLFVENTS [D12T]	5.33
STTRRRLFVWNDS [E10W]	3.48
STTRRRLFVENLS [D12L]	4.46
STTRIRLFVENDS [R5I]	1.31

Series 3 — technique: RNA Bind-n-Seq; molecule type: RNA; sample: in vitro; tested at: not given; baseline: input RNA pool; direction: higher = stronger binding
Target: RING finger protein unkempt homolog, zinc fingers 1-6, GST-SBP tag (UNK, Homo sapiens, UniProt Q9C0B0, residues 30-357)
Chain of UniProt Q9C0B0 (30-357, looked up): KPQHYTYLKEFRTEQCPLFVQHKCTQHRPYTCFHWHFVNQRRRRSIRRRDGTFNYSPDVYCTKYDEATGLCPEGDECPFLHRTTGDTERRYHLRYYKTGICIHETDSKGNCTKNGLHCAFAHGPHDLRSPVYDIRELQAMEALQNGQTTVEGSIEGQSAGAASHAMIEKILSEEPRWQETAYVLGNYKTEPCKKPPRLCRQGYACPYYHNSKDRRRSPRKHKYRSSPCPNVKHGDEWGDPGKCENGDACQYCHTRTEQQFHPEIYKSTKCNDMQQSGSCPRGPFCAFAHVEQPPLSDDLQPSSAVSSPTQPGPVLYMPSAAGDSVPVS
Notes: RNA with constant flanks, human and mouse sites, ends assumed
Shared flanks, not repeated: GGGAGUUCUACAGUCCGACGAUC … CAACAGAGGAUUGAGCAUCA
Oligonucleotide	bound/input enrichment
GGUGGCAAGGCCAAGAAGAAGAAGUGGUCCAAAGGCAAAGUUCGGGACAAGUUGAACAAUCUUGUCCUGUUCGACAAAGCGACAUACGACAAGCUCUGUAAGGAGGUUCCGAACUAUAAG	0.182 ratio
CGCGCGCCGGGGGGCGUGGGCUCGAGGGCGGGGAGCAGCGCCAAGUUGGUGAAGGGAGACCCAGGAAAGGCCUAGGGUUUGCGGAAGAUACUUGUCUGCAAGGAACCUGUCCCACUGAUA	0.164 ratio
GUCAUUCAUACCAUUCACACCUAAAGACUGAAUUUUAUCUGUUUUAAAAAUGAACUUCUCCCGCUACACAGAAGUAACAAAUAUGGUAGUCAGUUUUGUAUUUAGAAAUGUAUUGGUAGC	3.69 ratio
AGACAUUCAACACCUUUACAUUUAGCAGCUGGUUAUAAUAAUUUAGAAGUUGCAGAGUAUUUGUUACAACACGGAGCUGAUGUGAAUGCCCAAGACAAAGGAGGACUUAUUCCUUUACAU	0.574 ratio
AAGCUAACAGAGCUCCUCCGAUACUACAUGCUCAACAUUGAAGCUGCUAAGGAUCUCUUAUACAGACGCACCAAAGCCCUCAUUGACUAUGAGAACUCAAACAAAGCUCUGGAUAAGGCC	0.0807 ratio
UUCAAGACGGAACUGCUAUGACUGGCCUAUUCAAGGCUUCAUAUUUUUAUACAGACUAUUUCACAGACCAUAGAUUUAUUUUAAAAGGGAAAAUCUCACACAUAAUUAAGCAGUGGAAAA	5.49 ratio
AGAAAUUGGACCAUCACUCGGCUUAAUGGUGAUUUUGCUCAGCUUAAUUUAAAGAUAAAAUUUCUUGAAGCUGGUAUCUAUGAAGUUCCCAUCAUAAUCACAGAUUCGGGUAAUCCUCCC	0.312 ratio
UUAAACAGUUGAACUGUGUAAAUGUUUCUUGAUCUCUAAGGUAUUAUGUUUGCCUUCUCUUAGUUAUUUCUGGGUUGUCACAAAGCUCAGUAUCAUGGUUUGACAGAAGCAGUUAUGUGA	2.44 ratio
UAUGGGGACCAAUACAGAGCAACUGAUUUUGUUGUUCCUGGGCCUGGAAAAGUAGAGAUAACCUACACACCAAAAGAUGGAACUCAGAAGGUGACAUACAUGGUACAUGACUUUGAAGAA	0.156 ratio
UCUCUCAUUAAACCAACCAGUAAAAGCGUAUCCUAUUUUUUUGCACAAGGUGUUUCAUUUUCGUUUUUAUGGGAAACCAAGGGAAAAGCACAUUGCGAUCCAUUCAGUGUUUAACUGUCG	0.369 ratio
UUUGUUGUGCAUCAUUUAAAACAUUUUGUAUGUUUCUUAUCUGUGUAUACAGUAUGUUCUUGAAUAAUGUUCAUUUGUCGGGAGAACUGUGAGAAAUAAACGAUGUGGAUAUGUUUGUUU	0.238 ratio

Series 4 — technique: DHFR PCA, deep sequencing; sample: yeast; with: (+)-ABA 2500 µM; baseline: wild-type fitted maximum; direction: higher = stronger binding
Target: ABI1, truncated, D143A, DHFR fusion (Arabidopsis thaliana)
Notes: methotrexate growth selection, single substitutions
Starting sequence: PYL1, truncated, DHFR fusion (Arabidopsis thaliana); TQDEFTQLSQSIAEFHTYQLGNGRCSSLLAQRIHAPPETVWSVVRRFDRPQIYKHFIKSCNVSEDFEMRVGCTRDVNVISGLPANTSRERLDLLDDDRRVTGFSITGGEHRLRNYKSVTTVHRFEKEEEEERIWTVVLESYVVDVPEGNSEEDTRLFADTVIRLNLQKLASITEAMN
Variant	relative binding score
F66Q	96%
S26Q	91.9%
R90H	90.6%
R74Y	0.131%
I12Q	96.1%
R132K	106%
S87G	61.9%
F56D	3.72%
V100L	96.5%
V70C	92%
E67W	91%
N114T	75.9%
E14S	85.6%
V76E	20.7%
H16Y	32.8%
D3V	91.1%

Series 5 — technique: RNA Bind-n-Seq; molecule type: RNA; sample: in vitro; tested at: 1 µM; notes: whole 134-nt RNA, ends assumed; with: 150 mM KCl; baseline: input library; direction: higher = stronger binding
Target: Ras GTPase-activating protein-binding protein 1, C-terminal RGG region (G3BP1, Homo sapiens, UniProt Q13283)
Chain of UniProt Q13283 (whole entry, looked up): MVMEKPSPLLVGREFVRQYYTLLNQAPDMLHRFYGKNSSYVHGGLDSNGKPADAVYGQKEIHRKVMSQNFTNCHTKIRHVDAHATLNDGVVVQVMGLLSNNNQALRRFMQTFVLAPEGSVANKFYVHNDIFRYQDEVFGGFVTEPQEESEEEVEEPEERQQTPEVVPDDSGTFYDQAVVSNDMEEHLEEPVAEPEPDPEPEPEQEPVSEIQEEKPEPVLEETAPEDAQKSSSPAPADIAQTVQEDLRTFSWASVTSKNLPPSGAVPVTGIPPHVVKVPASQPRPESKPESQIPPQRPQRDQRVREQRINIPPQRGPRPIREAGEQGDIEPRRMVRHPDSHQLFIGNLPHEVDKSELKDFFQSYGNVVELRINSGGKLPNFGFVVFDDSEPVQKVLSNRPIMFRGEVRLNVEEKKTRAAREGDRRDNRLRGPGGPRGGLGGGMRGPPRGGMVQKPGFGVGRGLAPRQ
Shared flanks, not repeated: GGGAGUUCUACAGUCCGACGAUC … UGGAAUUCUCGGGUGUCAAGG
Oligonucleotide	log2 enrichment
AGUCCUGUGCUACACAUCGUAUGUACCGAAUCGGUUUUUUUGGAAAGGUUUUUUUGGAAAGUAUUAUGUUACGCCGUUCGGAUCUGCACU	-2.09
GUCCUGUGCUACACAUCGUAUGUACCGAAUCGGUUUUUGGGGUUUUUGGGGUUUUUGGAAAGUAUUAUGUUACGCCGUUCGGAUCUGCAC	-0.678
UAUGCCACGCCCUUUGAGGACUCGAAGAUCAUGGUCUCUGACUUUGGACUCUCCAAAAUCCAGGCUGGGAACAUGCUAGGCACCGCCUGU	-0.389
UUGUCCCGGAUGGGCAGCCUGCGGGCUCCCGUGGACGAGGACCGCCUGUCCCCGCUGGUGGCGGCCGACUCGCUCCUGGAGCAUGUGCGG	-1.09
AAGUCCUGUGCUACACAUCGUAUGUACCGAAUCAAAUUUAAAUUUAAAUUUUUAAAAAAGUAUUAUGUUACGCCGUUCGGAUCUGCACUU	-2.21
ACCAUGCCGGUGGGCAUCUUUGGGAAGUGGGGCAAGGGGGGGAUAGGGAGGGGGGUAACACUUUGGGAACAGGUGGUCCCAGGUCGUUUC	-0.884
GCAGGAAGUAAAAACAAAUGGAAAUGCUUCGGAUAGUGGCAGGGGUGGGGGUUGCAAAGGAAAGGGUGGGAUGGGAGUGGGUAAAGAGUU	1.64

Series 6 — technique: protein binding microarray; molecule type: double-stranded DNA, one strand shown; sample: in vitro; tested at: not given; baseline: not given; direction: higher = stronger binding
Target: Histone acetyltransferase KAT6A, winged helix 2, GST fusion (KAT6A, Homo sapiens, UniProt Q92794, residues 85-181)
Notes: 8-mer, flanks averaged, mean of 2 arrays, mostly near background
Target sequence (chain): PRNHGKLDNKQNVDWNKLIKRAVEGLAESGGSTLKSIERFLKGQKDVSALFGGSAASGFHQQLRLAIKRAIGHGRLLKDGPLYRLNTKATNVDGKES
Oligonucleotide	E-score
TCGACTCA	-0.0478
GACCAGAA	-0.036
GTGAAATA	-0.0208
AGTGCTCA	-0.00775
ATTACAGG	-0.0995
AGATCCTC	-0.143
CTGTAATC	0.0289
CACTCTGA	-0.0251
AATATATG	-0.0215
ATACCGTC	-0.0589
GAACGCGC	0.192
CCAATTGC	-0.0581
ATTCCAGC	0.0342
ATGCTCCG	-0.00183
AGGGAGCA	-0.0594

Series 7 — technique: protein-binding microarray; molecule type: double-stranded DNA, one strand shown; sample: in vitro; tested at: 2200 nM top; notes: 60-bp whole probe; with: salmon DNA 0.4 mg/ml; baseline: random background probes; direction: higher = stronger binding; shared flanks, not repeated: GCCTAGCAC … GTCTTGATTCGCTTGACGCTGCTG
Target: Interferon regulatory factor 7, full length, phosphomimetic (IRF7, Homo sapiens, UniProt Q92985, residues 1-503, S471D/S472D/S475D/S476D/S477D/S483D/S484D/S487D)
Residues (chain): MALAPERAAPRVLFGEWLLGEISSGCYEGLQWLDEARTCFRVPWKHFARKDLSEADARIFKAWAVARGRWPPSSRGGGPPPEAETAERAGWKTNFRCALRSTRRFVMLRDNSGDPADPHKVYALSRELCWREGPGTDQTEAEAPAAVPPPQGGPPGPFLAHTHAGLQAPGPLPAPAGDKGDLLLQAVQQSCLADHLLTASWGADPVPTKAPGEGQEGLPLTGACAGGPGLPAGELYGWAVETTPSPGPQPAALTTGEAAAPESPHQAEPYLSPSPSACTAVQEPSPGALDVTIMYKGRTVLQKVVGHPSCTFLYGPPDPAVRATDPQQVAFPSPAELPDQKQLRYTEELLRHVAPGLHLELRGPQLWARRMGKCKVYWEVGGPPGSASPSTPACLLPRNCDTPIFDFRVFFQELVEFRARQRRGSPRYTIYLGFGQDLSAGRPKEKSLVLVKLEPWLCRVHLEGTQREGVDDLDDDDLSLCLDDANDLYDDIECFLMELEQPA
Oligonucleotide	fitted relative affinity [z-score]
TTAGAACTGAGTTTCAATTAGTGCTAG	-0.102
TCATTATTTTTTTTATTACTGTGCTAG	0.94
GACGAACTGAGTATCGGGACGTGCTAG	-0.292
TGTTTTTCATTTTTTTTCATGTGCTAG	3.42
TTATGACTGCTTTTCCTTTAGTGCTAG	2.11
TTAGATTTCAGTTTCAATTAGTGCTAG	2.74
TTAGATCTCCTTATCCTTTAGTGCTAG	1.11
TTAGGTCTCTGTTTCGGTTAGTGCTAG	4.75
TCAGGTTTTACTTTCTAACTGTGCTAG	2.78
TCACTTCTGCTTCCTCAGACTGTGCTA	2.67
TTAGATCTCCTACTGCTTTAGTGCTAG	0.855
GACGGTTTCCTTTCCCTGCCGTGCTAG	4.42

Some of these lines once more (series 2):
Variant	normalised enrichment score
SMTRRRLFVENDS [T2M]	5.4
STTTRRLFVENDS [R4T]	0.457
STTRRRLQVENDS [F8Q]	1.16
STTRRRLFVMNDS [E10M]	4.77
STTRRRLGVENDS [F8G]	-0.18
STIRRRLFVENDS [T3I]	5.51
STTRRRLFVENIS [D12I]	5.59
STTRRRLFPENDS [V9P]	5.87
STWRRRLFVENDS [T3W]	5.04
STTRRRLFVENTS [D12T]	5.33
STTRRRLFVWNDS [E10W]	3.48
